Measurements from different studies.
Each line is one published result; not all experiments were run side by side. Several values in a cell are separate wells, animals, samples, runs or records.
Target: Serine/threonine-protein kinase MRCK alpha (CDC42BPA, Homo sapiens, UniProt Q5VT25)

C[C@H]1CN(C(=O)c2cn(-c3ccnc(N)n3)c3cc(C#CC4(O)CCCCC4)ccc23)CCN1 — inhibition (enzyme activity, inhibitor, FRET; 1 µM): 0%
Nc1ncc(-c2cc(-c3cnn(CC(F)(F)F)c3)ncc2F)nc1C(=O)NC1CNCC(F)C1 (stereo not shown) — remaining activity (enzyme activity; 1 µM; reference: DMSO control): 108%
Cc1cccc(O[C@H]2CCC[C@@H](C(C)CNCc3ccncc3)C2)c1 (relative stereo) — inhibition (enzyme activity, inhibitor; 1 µM): 8%
CN1CC[C@@H](COc2cnc(C#N)cc2-c2ccn3nc(NC(=O)C4CC4)cc3c2)C1 — inhibition (enzyme activity, inhibitor; 1 µM): 2%
CCn1cc(C(=O)O)c(=O)c2c(N)c(F)c(NC3CCCCC3)cc21 — inhibition (kinase activity; 0.1 µM, together with: ATP at Km): 1.8%
CC(C)=CC1OC(C)(C)C2C=C3C(=O)C(Cl)=CC(O)C3C3C(O)C4OC4C(=O)C132 (stereo not shown) — remaining binding (cell-free assay, competition with immobilised ligand; 10 µM): 100%
C=CC(=O)Nc1cccc(-c2cnc3[nH]cc(C(=O)NC(C)(C)C)c3n2)c1 — inhibition (enzyme activity, inhibitor; 0.1 µM): 19%
Nc1ncc2c(n1)-c1c([nH]c3ccc(C4=CCOCC4)cc13)CCC2 — remaining binding (binding, competition with immobilised ligand; 1 µM): 89%
COc1cc(Nc2nc(C)cc(-c3cnn4nc(OC)ccc34)n2)cc(C(F)(F)F)c1 — remaining binding (KINOMEscan; 1 µM, MRCKA; reference: DMSO): 92%
CCN1CCN(Cc2ccc(C(=O)Nc3ccc(C)c(NCc4cnc5[nH]ccc5c4OC)c3)cc2C(F)(F)F)CC1 — remaining binding (binding, competition with immobilised ligand; 1 µM): 100%
O=C=[N][Ru-4]123([n]4c5ccc(O)cc5c5c6c(c7cc(F)c[n+]1c7c54)C(=O)NC6=O)[S+]1CC[S+]2CC[S+]3CC1 (stereo not shown) — remaining activity (enzyme activity; 100 nM, human enzyme, together with: 10 µM ATP; reference: untreated): 108%
NC(=O)C[C@H]1CCc2sc3ncnc(O[C@H]4CC[C@H](N5CCOCC5)CC4)c3c21 — inhibition (enzyme activity, inhibitor; 10 µM): -3%
COCC12C(=O)NC3C4(C(OC)CC1O)C1CC5(O)C(OC)C(O)C(OC(C)=O)(C1C5OC(=O)c1ccccc1)C3(O)C(OC)C24 (stereo not shown) — remaining activity (kinase activity, inhibitor, ProQinase kinase profiling; 25 µM; reference: control): 98% and 100%
Cc1ccc(-c2c(/C=C(\C#N)C(=O)NC(C)C)n(CCCO)c3ncnc(N)c23)cc1 — remaining binding (cell-free assay, competition with immobilised ligand; 1 µM): 98%
CNC(=O)C1CCN(c2cc(C)c(F)cc2NC(=O)c2ccc(-c3cc(O)ccc3C)c(C)c2)CC1 — remaining binding (binding, competition with immobilised ligand; 1 µM): 96%
C=CC(=O)N1Cc2nc(-c3cc(-c4cc(Cl)cnc4Cl)c(F)cc3F)n(-c3ccncn3)c2C1 — inhibition (cell-free assay, inhibitor; 1 µM): 8.7%

For quick reference, copied from above:
COc1cc(Nc2nc(C)cc(-c3cnn4nc(OC)ccc34)n2)cc(C(F)(F)F)c1 — remaining binding (KINOMEscan; 1 µM, MRCKA; reference: DMSO): 92%
CCN1CCN(Cc2ccc(C(=O)Nc3ccc(C)c(NCc4cnc5[nH]ccc5c4OC)c3)cc2C(F)(F)F)CC1 — remaining binding (binding, competition with immobilised ligand; 1 µM): 100%
